Assay results gathered from unrelated publications.
Protocols differ between the studies behind these lines. ± gives the spread as reported.

Cn1cncc1[C@@](N)(c1ccc(Cl)cc1)c1ccc2c(c1)c(-c1cccc(Cl)c1)cc(=O)n2C — solubility (citrate buffer; pH 4.0, 25 °C, final pH 4.06): 117 ± 5.9 µg/mL
O=C(NCCN1CCCC1)c1cc(-c2ccc(CN3CCOCC3)cc2)nc2ccc(F)cc12 — solubility (water; 4 h, pH 5.6, 37 °C): 346 ± 19 µM
Clc1nc(OCc2ccccc2)c2[nH]cnc2n1 — solubility (UV absorbance; culture medium; stock diluted to 0.40 mM): 120 µM
COc1ccc(Nc2ccnc3ccc(-c4ccc(S(=O)(=O)N5CCOCC5)cc4)cc23)cc1C — solubility (thermodynamic; aqueous medium): 0.1 µM
COc1cc(OC)c2c(=O)c(OC)c(-c3ccc(OC)c(OC)c3)oc2c1 — solubility (HPLC; ethanol:butylene glycol 100:0): 13460 ± 61 ppm
Brc1cccc([C@@H]2COC[C@H](C3CCCCC3)N2)c1 — solubility (shake-flask, LC-HRMS; aqueous buffer; 16 h, pH 6.8): < 4 µM
O=C(c1cc(Cc2n[nH]c(=O)c3ccccc23)ccc1F)N1CCN(C(=O)C2CC2)CC1 — solubility (1.4% w/v Gelucire): 20 µg/mL
CCOC(=O)N1C[C@@H](c2ccc(F)cc2)N[C@@H](C2CCOCC2)C1 — solubility (shake-flask, LC-HRMS; aqueous buffer; 16 h, pH 6.8): > 750 µM
O=C(COc1ccccc1[N+](=O)[O-])Nc1ccccc1N1CCOCC1 — solubility (aqueous buffer; pH 7.4): < 2.55 µg/mL
Cc1noc(C)c1Nc1ccnc2ccc(-c3ccc(S(=O)(=O)N4CCOCC4)cc3)cc12 — solubility (thermodynamic; aqueous medium): 2 µM
CC(=O)N=S(=O)(O)c1ccc(N/C=C2\C(=O)Nc3ccc4ncsc4c32)cc1 — solubility (aqueous buffer; pH 7.4): 30.5 µg/mL
COC1=C(OC)/C(=C/c2[nH]c(Cc3ccc(OC(F)(F)F)cc3)cc2Cc2ccc(OC(F)(F)F)cc2)N=C1c1ccc[nH]1.Cl — solubility (potassium phosphate buffer; 1.5 h, pH 7.4, room temperature): 32.7 µM
Nc1nc2c(ncn2COCCO)c(=O)[nH]1 — solubility (shake-flask; methanol-ethanol mixture; 298.2 K, mass fraction 0.5): 486 µg/mL
Fc1ccc([C@H]2COC[C@H](c3ccc(-c4ccccc4)cc3)N2)cc1 — solubility (shake-flask, LC-HRMS; aqueous buffer; 16 h, pH 6.8): < 4 µM
N=C(N)c1ccc2cc(NS(=O)(=O)c3ccccc3)ccc2c1 — solubility (aqueous buffer; pH 7.4): 66.6 µg/mL
O=C(Nc1ccccc1)C1(C(F)(F)F)CC1 — solubility (PBS; 2 h, pH 7.4, 25 °C): 369 µM
Cc1[nH]c(/C=C2\N=C(c3ccc[nH]3)C=C2OCc2ccccc2)cc1Cc1ccc(Cl)cc1.Cl — solubility (potassium phosphate buffer; 1.5 h, pH 7.4, room temperature): 19.1 µM
COc1ccccc1NC(=O)CSc1nncn1C — solubility (aqueous buffer; pH 7.4): > 3380 µg/mL
CCCS(=O)(=O)Nc1ccc(F)c(C(=O)c2cn(C(=O)OCc3cc(P(=O)(O)O)ccc3OP(=O)(O)O)c3ncc(-c4ccc(Cl)cc4)cc23)c1F — solubility (HPLC, saturated solution; simulated gastric fluid; 30 s, pH 1.2): 660 µg/mL
CCn1c(SCC(=O)Nc2cccc(C(C)=O)c2)nnc1-c1ccncc1 — solubility (aqueous buffer; pH 7.4): < 2.04 µg/mL
O=C(Nc1ccc2[nH]ccc2c1)c1ccccc1Cl — solubility (kinetic solubility; PBS with NaCl, SDS, ThT; pH 7.4): ≥ 300 µM
O=C(Nc1ccc(OC(F)(F)F)cc1)N[C@H]1CC[C@H](Oc2ccc(C(=O)O)cc2)CC1 — solubility (simulated gastric fluid (HCl 0.1 N); pH 1.0, 37 °C, equilibrium): 0.015 ± 0.0028 µg/mL
O=C(Cn1ccc([N+](=O)[O-])n1)N1CCCc2ccccc21 — solubility (aqueous buffer; pH 7.4): 84 µg/mL
CN(Cc1ccc(C2(C(F)(F)F)CC2)cc1)Cc1cccc2ccccc12.Cl — solubility (PBS; 2 h, pH 7.4, 25 °C, 2% DMSO): 3 µM
COc1cccc2c(NCc3ccccc3)nc(-n3c(N)nc4ccccc43)nc12 — solubility (aqueous buffer; pH 5.0): 0.06 µg/mL
COc1cc(OC)c2c(=O)c(OC)c(-c3ccccc3)oc2c1 — solubility (HPLC; ethanol:butylene glycol 100:0): 2373 ± 15 ppm
CCOC(=O)N1C[C@@H](c2cccnc2)N[C@@H](c2ccc(C#N)cc2)C1 — solubility (shake-flask, LC-HRMS; aqueous buffer; 16 h, pH 6.8): > 750 µM
COc1cccc(-c2cccc(Nc3nccc(NC(C)C)n3)c2)c1 — solubility (citrate phosphate-buffered saline; 18 h, pH 7.4, 1% DMSO): 0.2 ± 0.7 µM
COc1cc(OC)c2c(=O)cc(-c3ccccc3)oc2c1 — solubility (HPLC; ethanol:butylene glycol 25:75): 13140 ± 20 ppm
CC[C@@H](C)Nc1ccnc(Nc2cccc(-c3cccnc3)c2)n1 — solubility (citrate phosphate-buffered saline; 18 h, pH 7.4, 1% DMSO): 17.5 ± 1.9 µM
CCOC(=O)N1C[C@@H](c2ccc(O)cc2)N[C@@H](C2CC2)C1 — solubility (shake-flask, LC-HRMS; aqueous buffer; 16 h, pH 6.8): > 750 µM
CCCCNc1ccnc(Nc2cccc(-c3cccnc3)c2)n1 — solubility (citrate phosphate-buffered saline; 18 h, pH 7.4, 1% DMSO): 5 ± 0.2 µM
Cc1n(Cc2ccc3ccccc3n2)cc[n+]1Cc1ccc2ccccc2c1.[Br-] — solubility (aqueous 2-hydroxypropyl-β-cyclodextrin): > 10000 µM
CCC(C)n1ncn(-c2ccc(N3CCN(c4ccc(OCC5COC(Cn6cncn6)(c6ccc(Cl)cc6Cl)O5)cc4)CC3)cc2)c1=O (stereo not shown) — solubility (FeSSIF; pH 5.0): 7 µg/mL
Clc1nc(SCc2ccccc2)c2[nH]cnc2n1 — solubility (UV absorbance; culture medium; stock diluted to 0.60 mM): 57 µM
N=C(CCl)NCCC[C@H](NC(=O)c1ccc2cc(O)ccc2c1)C(=O)NCc1ccccc1 — solubility (water): > 20000 µg/mL
CC(C)(C)c1nc(-c2cccc(N(Cc3cc(C(=O)[O-])ccc3OP(=O)([O-])[O-])S(=O)(=O)c3c(F)cccc3F)c2F)c(-c2ccnc(N)n2)s1.[Na+].[Na+].[Na+] — solubility (HPLC, saturated solution; HBSS; 30 s, pH 6.5): > 49000 µg/mL
COc1c(NC(=O)C(=O)c2ccc(OCCN3CCOCC3)c3ccccc23)cc(C(C)(C)C)cc1NS(C)(=O)=O — solubility (PBS; pH 7.4, 23 °C, 1% DMSO): < 1 µM
COc1cccc([C@@H]2COCC3(CCOCC3)N2)c1 — solubility (shake-flask, LC-HRMS; aqueous buffer; 16 h, pH 6.8): > 750 µM
CS(=O)(=O)c1ncn2c(NCc3c(F)ccc4c3CCO4)ncc(-c3ccc(C4CC4)nc3)c12 — solubility (FeSSIF): < 1 µg/mL
CCOC(=O)N1C[C@@H](C2CCOCC2)N[C@@H](c2cccc(OC)c2)C1 — solubility (shake-flask, LC-HRMS; aqueous buffer; 16 h, pH 6.8): > 750 µM
COc1ccc(-c2cc(=O)c3c(OC)cc(OC)cc3o2)cc1 — solubility (HPLC; ethanol:butylene glycol 100:0): 12970 ± 61 ppm
COc1ccc(OCC(=O)Nc2cc(-c3nn4c(C)nnc4s3)ccc2C)cc1 — solubility (aqueous buffer; pH 7.4): < 2.92 µg/mL
Cc1cc(/C=C/C#N)cc(C)c1Nc1ccnc(Nc2ccc(C#N)cc2)n1 — solubility (Peceol; 24 h, 37 °C): 430 ± 30 µg/mL
COc1ccc(NC(=O)CSc2nnc(-c3ccncc3)[nH]2)cc1 — solubility (aqueous buffer; pH 7.4): 3.54 µg/mL
CC(C)Nc1ccnc(Nc2cccc(-c3ccccn3)c2)n1 — solubility (citrate phosphate-buffered saline; 18 h, pH 7.4, 1% DMSO): 24 ± 29.3 µM
CCOC(=O)N1C[C@@H]([C@H]2CCOC2)N[C@@H](C2CCOCC2)C1 — solubility (shake-flask, LC-HRMS; aqueous buffer; 16 h, pH 6.8): > 750 µM
CC(C)(C)Nc1ccnc(Nc2cccc(-c3cccnc3)c2)n1 — solubility (citrate phosphate-buffered saline; 18 h, pH 7.4, 1% DMSO): 13.1 ± 3.3 µM
Cc1cc(Nc2ccnc3ccc(-c4ccc(S(=O)(=O)N5CCOCC5)cc4)cc23)on1 — solubility (thermodynamic; aqueous medium): 3 µM
